Measured values from different studies.
Numbered parts are unrelated; each lists some results of a single study.

Series 1
Target: Interferon regulatory factor 5, full length, phosphomimetic (IRF5, Homo sapiens, UniProt Q13568-2, residues 1-514, S451D/S453D/S456D/S462D)
Method: protein-binding microarray
Form: double-stranded DNA, one strand shown
Medium: in vitro
Concentration: 940 nM top
Notes: 60-bp whole probe
Together with: salmon DNA 0.4 mg/ml
Relative to: random background probes
Reading: higher = stronger binding
Shared flanks, not repeated: GCCTAGCAC … GTCTTGATTCGCTTGACGCTGCTG
Sequence	fitted relative affinity [z-score]
GAGGGTTTCCTACTGCTGACGTGCTAG	0.444
TTAGGTCTCGGTCTCGGTTTGTGCTAG	5.82
GACGGTTTCCTTTTCCTCACGTGCTAG	2.07
GACGGCCTGGGACTGGGGACGTGCTAG	-0.767
TTAGGTTTCGGTATCGGTTGGTGCTAG	15.2
ATAGATTTCAGTTTCGATTAGTGCTAG	9.15
TTAGATTTCGGTTATCGATTAGTGCTA	3.25
TTAGATTTCTGGTATCGATTAGTGCTA	5.41
GACGCACTGGACTATCGGGACGTGCTA	-0.266
TCAAAACTCGTGTTTTTCACTGTGCTA	-0.118
TTCTCTTTCCTTCTTGATGCGTGCTAG	1.98
TTAGGACTGGGGTTTCGATTAGTGCTA	5.03
TTAGATTTCGGGTATCGATCAGTGCTA	3.46
AAACTCGTGTTTTTCTCCTAGTGCTAG	-0.0782
GACGGTATCGGGTATCTGGACGTGCTA	4.63
TGAGGTATCGGTATCGGTTAGTGCTAG	8.55
GCAAAAATGATTGGTTGAACGTGCTAG	-0.125
GACGATTTCAGTTCAGAGACGTGCTAG	0.538
TTAGATCGCAGTATCGATTAGTGCTAG	3.87
TTAGGATTCGGGACTGGGTTAGTGCTA	0.131
GACGATATCAGTATTGAGACGTGCTAG	-0.0579
GACGATTGCAGTTCCGAGACGTGCTAG	-0.138
GACGGACTGCTTATCCTTACGTGCTAG	-0.259
GACTAACTGGGGACTGGAGACGTGCTA	-0.101
TTAGGTTTCGGTTTGGGTTAGTGCTAG	15.5

Series 2
Target: Histone acetyltransferase KAT6A, winged helix 1, GST fusion (KAT6A, Homo sapiens, UniProt Q92794, residues 1-85)
Method: protein binding microarray
Form: double-stranded DNA, one strand shown
Medium: in vitro
Concentration: not given
Notes: 8-mer, flanks averaged, mean of 2 arrays, mostly near background
Relative to: not given
Reading: higher = stronger binding
Construct (chain): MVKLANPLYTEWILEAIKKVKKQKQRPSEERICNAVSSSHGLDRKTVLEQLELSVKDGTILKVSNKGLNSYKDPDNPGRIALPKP
Sequence	E-score
GAGAGCAA	-0.265
ATTACGGA	0.297
GGGACCCC	0.14
AAGGCTCC	-0.118
CGTTCATC	0.0314
ACGTGATC	0.0987
GTAACGAC	0.124
AAACCGGC	0.36
AGCGGAAA	0.186
AAGCCTAC	-0.0964
GATGAGCC	-0.0634
TATCAAAA	-0.109
CCCTTCGC	0.0659
GACTGGGC	-0.221
CCAGCAGG	-0.0608
AGAACACT	0.0955
ACGCACAG	0.19
AAGAGACC	-0.0909
AAGTTGAG	-0.113
CTCATTGC	-0.278
ACGCAGCT	0.0347
GACTCCAA	-0.198
CGGCGGCA	0.471
ACTTTGGA	-0.243

Series 3
Target: RNA binding protein fox-1 homolog 2, RRM domain, GST-SBP tag (RBFOX2, Homo sapiens, UniProt O43251-10, residues 100-194)
Method: RNA Bind-n-Seq
Form: RNA
Medium: in vitro
Concentration: 365 nM
Notes: natural RNA segment, single round, ends assumed
Relative to: no-protein control
Reading: higher = stronger binding
Shared flanks, not repeated: GGGAGUUCUACAGUCCGACGAUC … UGGAAUUCUCGGGUGCCAA
Target sequence (chain): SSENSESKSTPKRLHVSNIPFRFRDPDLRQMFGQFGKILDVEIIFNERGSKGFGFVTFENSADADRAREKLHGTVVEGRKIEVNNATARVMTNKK
Sequence	RBNS enrichment (R)
AUUUGCUGUCGGGUUUCCAGUUUCACCGUGUGUUAGGGUGAGGGAUGAUUGUAAAAUUUGCUCCUCAAAGGAAUCAGGCCAGACUCAAUUUUGGAGGGCAAGACAGGGAG	0.962
CCUGACACAUCAGGCAAUGAAUAAUGGGGCAGAUGACAGGCUGCUUGGUGUCAUUUUCAGGCGGGCCCCUCUCUGAUUCCUCGGUCUGGAAAUAAACGCCAGGAAACAGC	0.469
AGAGGGAUGACUGCUGGGGGUAGACUGGGUGCCAGGGGCCAUGGGCCCAGGACCCAGUCUUGGCCAUUCAGUUGAGUGAGGCUGAAGGCUGGGUUUGAAAAGGCAAAAAG	0.757
UUUAUCUUCUUGCACAUGUUUGUACAGAAAUCACCUUCAUCCUUGUGGUGCUUACACACACCCAGUUGUCUCCACAGCUCUGAUACCUUUGCCUUCUGUUCUCCUCUCUA	0.392
UAAUGAAGUAUUCUGUUCCUAGUUGUGGGUGUGCUGGGUGGAGUGUGAAACACGACAUGAUCAAAGGAGACAGACAGUAUUUUGACUAAUAUGAAGUAGAGAUUACUUUA	1.12
CAUUUUUUUUUUAUGAUUUGUCUCUGUCACCCUUGUCCUUGAGUGCUCUUGCUAUUAACGUUAUUUGUAAUUUAGUUUGUAGCUCAUUAAAAAAAUGUGCCUAGUUUUAU	0.737
AUGUUAACUUUCAGUGUCACCAUCUUACAGCUUAGGGGCAUUUGCAUUCCCCUGACAAAGGUAUCAUGUGUACAGCUCAGUAGUGUGCCCUGUCCUUCUCAUGGACUCCA	0.23
GUUUGGGGCUAAGAAGUUCACCAGCCCUGAGCCAUGGCGGCCCCUCAGCCUGCCUGAAGAGAGGAAACUGGCGAUCUCCCAGGGCUCUCUGGACCAUACGCGGAGGAGUU	0.364
AGCAGCAUGCAAUUCCUAGUGACUUGCUGCACAGUAUUGUAUCAUAAUUACAGGAAGUUUUUAUUUUUAAAACUGGAUCUGGGGUAUAUUCAUUUGCCCCAUCACCUCUG	0.319
CACUCUUCAAGCGCUUGCUCUUACAGGCAGACAUCGUUUUCUCUCUAAAUUCAGUAGCAGUUUCAUCGACAGUGCCAUUGAACUAUGGGAACAUUUAUGAUUUUCUUUCA	0.224
UGUCUGCCACACUCAGCAGGCCCUGUAGUGGUUCUCAUUUUGGCAUCUGGCUGGCUGCCUGCCUUAAACCCCCACCAAAGCUCCUUUUCAUAAAGGGGCUACCUUGAGAG	0.371
GAUUAUUCCAUAUUAUUAAAGAAAAAAAAAGCCAAAAAACUGCAAGCCACCUCUCUCUUUCUUGCUAUCUUUUUUUUCUCUCUCUCUCUAUCUCAAGUUUGUGCAGGGAG	0.681

Series 4
Target: Probable WRKY transcription factor 33, N-terminal DNA-binding domain (WRKY33, Arabidopsis thaliana, UniProt Q8S8P5, residues 169-264)
Method: DNA-protein interaction ELISA
Form: double-stranded DNA, one strand shown
Medium: in vitro, bacterial lysate
Concentration: not given
Notes: whole dsDNA probe, crude lysate protein
Relative to: highest signal in screen
Reading: higher = stronger binding
Construct (chain): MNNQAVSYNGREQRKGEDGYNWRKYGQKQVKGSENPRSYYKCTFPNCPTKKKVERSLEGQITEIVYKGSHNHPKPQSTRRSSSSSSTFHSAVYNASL
Sequence	relative absorbance
AAAAAATAATTACAAGTCGGCTCCACAAAA	21 % of maximum
AAAAAATTCCCAGCGTATCCGACCCGAAAA	21.4 % of maximum
AAAAAAGGGTATACTCGCAGCCCCTAAAAA	19.5 % of maximum
AAAAAAGGCTTCCACTTTGAGTTTGCAAAA	26.4 % of maximum
AAAAAAGCGTAAGCCTTGACAGTCGTAAAA	23.7 % of maximum
AAAAAATGCCGAGACCCCATGCCGGCAAAA	16.6 % of maximum
AAAAAATTTATACTTGATCCTGGCTTAAAA	27.5 % of maximum
AAAAAATTCTTAGTTAGATTCACCTCAAAA	23.7 % of maximum
AAAAAAGTTCGGGGCTTGGTTTGGAAAAAA	22.7 % of maximum
AAAAAAGTCCGCCCTTAATTCATATTAAAA	59.4 % of maximum
AAAAAACCTCTTGTCTCTGCTCTCCCAAAA	22.4 % of maximum
AAAAAATCGCACTGCCGCCGATGGCTAAAA	19.9 % of maximum
AAAAAAGATGATTAGTAATTGCGGAAAAAA	27.8 % of maximum
AAAAAACCTTCCCCCTCTTCTGCCTTAAAA	31 % of maximum
AAAAAACTGGTGTATCTCCTCAATTAAAAA	22.3 % of maximum
AAAAAATTCCTGTCCGCTCTCGCTCCAAAA	23.3 % of maximum
AAAAAATTGCATTCCACCCTTAGGTTAAAA	26 % of maximum

Some of these lines once more (series 1):
Sequence	fitted relative affinity [z-score]
GCAAAAATGATTGGTTGAACGTGCTAG	-0.125
GACGGTATCGGGTATCTGGACGTGCTA	4.63
TTAGGTCTCGGTCTCGGTTTGTGCTAG	5.82
GACGGACTGCTTATCCTTACGTGCTAG	-0.259
GACGATTGCAGTTCCGAGACGTGCTAG	-0.138
TTAGATTTCGGTTATCGATTAGTGCTA	3.25
